{"data": "Measured values of several laboratories", "TGFBR1": "TGF-beta receptor type-1 (TGFBR1, Homo sapiens, UniProt P36897)", "note": "Compare with care: the assays were run in different laboratories.", "sequence of UniProt P36897 (whole entry, looked up)": "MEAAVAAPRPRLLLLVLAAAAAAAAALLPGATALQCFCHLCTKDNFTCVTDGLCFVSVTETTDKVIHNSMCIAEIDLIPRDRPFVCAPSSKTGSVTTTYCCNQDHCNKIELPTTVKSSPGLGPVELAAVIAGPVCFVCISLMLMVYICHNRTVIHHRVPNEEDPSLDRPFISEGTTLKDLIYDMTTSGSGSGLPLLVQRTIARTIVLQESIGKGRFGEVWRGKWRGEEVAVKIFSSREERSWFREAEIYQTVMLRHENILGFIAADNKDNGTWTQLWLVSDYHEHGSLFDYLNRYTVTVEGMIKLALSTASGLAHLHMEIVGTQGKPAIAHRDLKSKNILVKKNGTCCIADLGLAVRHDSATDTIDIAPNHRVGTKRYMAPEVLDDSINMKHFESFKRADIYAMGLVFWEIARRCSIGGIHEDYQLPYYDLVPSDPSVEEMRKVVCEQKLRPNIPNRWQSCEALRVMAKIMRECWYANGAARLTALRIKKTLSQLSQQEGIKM", "sequence of UniProt P68400 (whole entry, looked up)": "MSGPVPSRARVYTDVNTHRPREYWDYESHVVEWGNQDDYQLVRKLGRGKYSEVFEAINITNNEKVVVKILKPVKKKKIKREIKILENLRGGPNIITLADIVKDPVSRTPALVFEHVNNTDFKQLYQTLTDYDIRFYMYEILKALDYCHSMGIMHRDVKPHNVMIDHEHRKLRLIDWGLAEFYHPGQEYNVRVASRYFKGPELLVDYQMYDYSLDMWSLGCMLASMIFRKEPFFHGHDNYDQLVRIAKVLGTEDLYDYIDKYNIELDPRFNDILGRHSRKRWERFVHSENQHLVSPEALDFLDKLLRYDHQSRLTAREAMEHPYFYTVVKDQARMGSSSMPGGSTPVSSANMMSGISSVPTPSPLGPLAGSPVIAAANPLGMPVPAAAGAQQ", "sequence of UniProt P54764 (whole entry, looked up)": "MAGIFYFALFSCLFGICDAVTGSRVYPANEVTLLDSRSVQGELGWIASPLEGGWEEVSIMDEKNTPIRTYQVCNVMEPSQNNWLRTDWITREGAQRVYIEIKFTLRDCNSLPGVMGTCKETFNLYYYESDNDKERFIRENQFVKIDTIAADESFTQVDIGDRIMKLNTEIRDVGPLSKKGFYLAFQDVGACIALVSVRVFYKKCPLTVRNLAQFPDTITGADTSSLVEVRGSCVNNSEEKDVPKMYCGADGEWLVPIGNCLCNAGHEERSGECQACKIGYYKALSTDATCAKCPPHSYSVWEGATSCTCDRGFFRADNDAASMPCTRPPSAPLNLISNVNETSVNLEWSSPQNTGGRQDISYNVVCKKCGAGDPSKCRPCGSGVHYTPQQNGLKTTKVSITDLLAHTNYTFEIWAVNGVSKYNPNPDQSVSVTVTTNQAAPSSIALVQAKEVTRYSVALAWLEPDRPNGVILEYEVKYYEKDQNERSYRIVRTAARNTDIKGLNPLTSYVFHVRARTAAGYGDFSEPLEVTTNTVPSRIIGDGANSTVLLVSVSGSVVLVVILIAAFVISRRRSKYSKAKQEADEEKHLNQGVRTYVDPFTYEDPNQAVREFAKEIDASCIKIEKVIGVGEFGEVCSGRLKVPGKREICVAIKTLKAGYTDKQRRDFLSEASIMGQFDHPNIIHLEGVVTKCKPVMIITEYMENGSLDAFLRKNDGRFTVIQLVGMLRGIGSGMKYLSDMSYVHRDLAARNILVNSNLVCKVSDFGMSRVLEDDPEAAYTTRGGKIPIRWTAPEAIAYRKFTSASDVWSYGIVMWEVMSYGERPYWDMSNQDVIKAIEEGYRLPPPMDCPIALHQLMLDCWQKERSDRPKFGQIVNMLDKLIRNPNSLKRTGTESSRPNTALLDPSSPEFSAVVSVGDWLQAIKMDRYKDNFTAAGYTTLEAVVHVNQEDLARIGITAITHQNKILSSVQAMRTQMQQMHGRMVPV"}
{"Compound": "CNc1ncc2c(/C=C/C(=O)N3CCC(OC)CC3)nn(Cc3cccc(C(F)(F)F)c3)c2n1", "target or system": "TGFBR1", "effect on": "enzyme activity", "action": "inhibitor", "method": "radiometric", "concentration": "1 µM", "measurement": "remaining activity", "result": "86%"}
{"Compound": "[2H]c1c([2H])c([C@]2([2H])CCCN2C(=O)C(C)(C)Oc2ccc3cn[nH]c3c2)c([2H])c([2H])c1C([2H])([2H])[2H]", "target or system": "TGFBR1", "effect on": "binding", "method": "competition with immobilised ligand", "concentration": "1 µM", "measurement": "remaining binding", "result": "87%"}
{"Compound": "C=CC(=O)N1CCC(COCC(=O)N2CCN(c3nc(-c4cnc(N)nc4C(F)F)nc(N4CCOC[C@@H]4C)n3)CC2)CC1", "target or system": "TGFBR1", "effect on": "binding", "method": "competition with immobilised ligand", "concentration": "1 µM", "measurement": "remaining binding", "result": "100%"}
{"Compound": "CCCCC(=O)Nc1ccc(-c2ccc3ncn(CCC)c(=O)c3c2)cn1", "target or system": "TGFBR1", "effect on": "binding", "method": "competition with immobilised ligand", "concentration": "0.5 µM", "measurement": "remaining binding", "result": "77%"}
{"Compound": "CN(O)N=Nc1ccc(S(=O)(=O)Nc2nccs2)cc1", "effect on": "DPPH scavenging", "method": "absorbance", "concentration": "20 µg/mL", "measurement": "inhibition", "result": "3.98%"}
{"Compound": "C1=C/COCc2cc(ccc2OCCN2CCCC2)Nc2nccc(n2)-c2cccc(c2)COC/1", "target or system": "CSNK2A1 (Homo sapiens, UniProt P68400)", "effect on": "binding", "concentration": "0.1 µM", "measurement": "remaining binding", "result": "56%"}
{"Compound": "Cc1cc(NS(=O)(=O)c2ccc(N=NN(C)O)cc2)no1", "effect on": "DPPH scavenging", "method": "absorbance", "concentration": "20 µg/mL", "measurement": "inhibition", "result": "25.7%"}
{"Compound": "COc1cc(-c2cncc3c2CN(C)Cc2cc(N4CCNCC4)ccc2-3)cc(OC)c1OC", "target or system": "EPHA4 (Homo sapiens, UniProt P54764)", "effect on": "enzyme activity", "action": "inhibitor", "concentration": "1 µM", "measurement": "remaining activity", "result": "103%"}
